Assay results pooled from the literature.
A part holds a random share of what one study measured.

Sample 1 — technique: RNA Bind-n-Seq; molecule type: RNA; medium: in vitro; tested at: not given; baseline: input RNA pool; reading: higher = stronger binding
Target: RING finger protein unkempt homolog, zinc fingers 1-6, GST-SBP tag (UNK, Homo sapiens, UniProt Q9C0B0, residues 30-357)
Notes: RNA with constant flanks, human-mouse chimeric sites, ends assumed
Constant ends, left off below: GGGAGUUCUACAGUCCGACGAUC … CAACAGAGGAUUGAGCAUCA
Construct (chain): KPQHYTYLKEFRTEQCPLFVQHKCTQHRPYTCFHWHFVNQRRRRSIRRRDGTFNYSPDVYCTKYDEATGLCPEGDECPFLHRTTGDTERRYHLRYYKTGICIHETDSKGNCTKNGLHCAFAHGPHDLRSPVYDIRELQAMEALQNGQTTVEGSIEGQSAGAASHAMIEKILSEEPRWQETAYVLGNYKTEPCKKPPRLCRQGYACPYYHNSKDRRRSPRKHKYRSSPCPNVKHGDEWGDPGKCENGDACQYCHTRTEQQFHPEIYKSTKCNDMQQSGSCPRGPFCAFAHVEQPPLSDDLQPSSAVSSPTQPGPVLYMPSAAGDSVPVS
Oligonucleotide | bound/input enrichment
UAACCACAUCAAGAUGGUUGGGAAGCUGAAGCAGAACUUACUCUUGGCGUGUCUGGUGAUUAGUUCUGUGACCGUGUUUUACCUGGGCCAGCAUGCCAUGGAAUGCCAUCACCGGAUAGA | 0.187 ratio
UUGGAAGGACCAGAGCCCAGUCAGCUCAAACCAUUAGUCAUACAGGCUAUGCCCACCCUAAUAGAACUAAUGAAAGACCCCAGUGUAGUUGUUCGAGAUACAGCUGCGUGGACUGUGGGC | 0.477 ratio
ACCUCCCAGGCCUGGGACACCCCACCCCCGCUUUUUGGAAAGUUUUUGGCGUUUCUUUUUUUUAGAAAUACAAAGUGAUUACAGUUUCCCCCGCAAGGGUCUAUCGAAGGGCUUGACGGA | 0.356 ratio
UUAAACACCAAGCUGAUGGACUCUGAUGGCCUCCAUCUCUCAGGCACGUGUGCCUUCUCUUAGUCCCUGUUUUCGGGUCACAAAGCUUCUCAGUACUGUGGUUUGAAAGCACCAGCUUUG | 0.12 ratio
GUUGCCAGGUUCCGGUGCCGUUGGGCUCGGUUCUCUCCUGAGCUACGUGUCUCUACGCUCUCAAUCCGCCAUCCAACAAACAUGGAUCAGGUAAUGCAGUUUGUGGAGCCCAGCCGGCAG | 0.0697 ratio
CACACACUCUUCUGCGGGACCCUCAUCUUGCAGGCCCGGGCCUAUGUGGGACCCCGUGUGCUAGCAGUGGUGACCCGCACAGGGUUCUGCACGGCAAAAGGGGGCCUGGUGAGCUCCAUC | 0.0619 ratio
GCAGGAUCUUCUAAAUACCAGUGGGACAUUAUGAAAUCCCUUGGGCUCUCUGAUGACGACAUAGUGAAGUUUUCUGAAGCAGAACAUUGGCUUGAUUAUUUCCCACCACUGGCCGUUCAG | 0.28 ratio
UAAGUUAUUUUGUACAGCUUUGUAAAUUGUAUAGCUUUUUAUAUUGCCAUGUUUAUUUUGUUUGGGUAAUUUGGUUCAUUAAGUACAUAGCUAAGGUACAUCUUUCAUUUUUCAGUAAUU | 1.83 ratio
CAGUUGAAGACAGAAAAGGAUGAGAAGGAGCUGUAUAAGGUACAUUUGAAGAAUACAGAAAUAGAAAAUACGAAGCUUGUGUCAGAGGUCCAGACUUUAAAGAAUUUAGAUGGAAACAAA | 3.15 ratio
UUACCCGAGAACGAGGAUGAGCUGGAGAGCACCAAUAGGCGCUACACCAAGAGAGACUGCAGCACUUUCCUCAGAACUAGUGAGACGGGCAUCGUGGACCAGGUCAUGGUCACUCUCAAC | 0.27 ratio
UUCAAAGAAAAGGGCAGUUCAUAAAUAUCAUAAGUAACUCUGGGGGAGGGAAAUUCUGUUCUUUUGUUUUUAGUUUUCCCAAAUGAAGCCAAAGUGUGUGUUGAAGAACUGAGAAAAAAU | 0.481 ratio

Sample 2 — technique: protein-binding microarray; molecule type: double-stranded DNA, one strand shown; medium: in vitro; tested at: 250 nM; notes: 60-bp whole probe; added: salmon DNA 0.4 mg/ml; baseline: random background probes; reading: higher = stronger binding; constant ends, left off below: GCCTAGCAC … GTCTTGATTCGCTTGACGCTGCTG
Target: Interferon regulatory factor 5, full length, phosphomimetic (IRF5, Homo sapiens, UniProt Q13568-2, residues 1-514, K96S/S451D/S453D/S456D/S462D)
Oligonucleotide | log fluorescence
GACGGTCTCCTTTTCATGACGTGCTAG | 0.316 z-score
CATTGCCTGTTTTTCCCCTGGTGCTAG | 0.499 z-score
TCAGTTCTTAGCTTGGGACTGTGCTAG | -0.0869 z-score
GCACTTTTCCCCCTAGTTGTGTGCTAG | 0.755 z-score
TCACATTTCCAATTACCACTGTGCTAG | 0.821 z-score
GGAAATATTTACCTCTCACGGTGCTAG | 0.352 z-score
TCCCCGGAGCTGGACAGAAGGTGCTAG | -0.413 z-score
TTAGGTTCCGCTTTCGGTTAGTGCTAG | 9.36 z-score
GACGGTTTCGGGTTTCTGGACGTGCTA | 7.26 z-score
GACGTTTTCGACTTTCGGGACGTGCTA | 7.22 z-score
GACGAACTGAGTCTCGAGGCGTGCTAG | -0.361 z-score
GGCGGTATCCTTTTCCTGACGTGCTAG | 0.26 z-score
TACTTTCTACGTCTGATTTTGTGCTAG | 4.73 z-score
TCAAAAATGATTTTTTTACTGTGCTAG | 0.609 z-score
ATGCTACAATAAGTGTTAGTGTGCTAG | -0.0802 z-score
TCATTTCTAATTTACTTACTGTGCTAG | 1.41 z-score
TCATGACTCTTTCTGTCACTGTGCTAG | 2.81 z-score

Sample 3 — technique: RNA Bind-n-Seq; molecule type: RNA; medium: in vitro; tested at: 365 nM; baseline: no-protein control; reading: higher = stronger binding
Target: RNA binding protein fox-1 homolog 2, RRM domain, GST-SBP tag (RBFOX2, Homo sapiens, UniProt O43251-10, residues 100-194)
Notes: natural RNA segment, single round, ends assumed
Constant ends, left off below: GGGAGUUCUACAGUCCGACGAUC … UGGAAUUCUCGGGUGCCAA
Construct (chain): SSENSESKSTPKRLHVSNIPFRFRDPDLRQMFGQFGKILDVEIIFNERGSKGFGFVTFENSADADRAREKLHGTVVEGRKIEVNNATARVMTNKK
Oligonucleotide | RBNS enrichment (R)
UGGGAAGAGGGGUUCUGGACUGUGCCUGCAUUAACUCCACGCUGGGGAGGGCGCGCUGCUGGUCCACAUUGGCUCCAUGGGGGAGCCCUCCCCUUGAGUUGGGGCUGAUA | 1.21
UUGGUUUCUGAUGAUUUAUAAGUAACUACAAAAGAAAGAGACCUGUUCUUGAACAGAUACUAUGUCUAUAACUCAGAUCGCACCAAACUUCCUGUGGUGACAGACUCUUC | 0.252
UGCAUUUUUCUGUCAGAAUCACAUAUGAUGUGUGUUCUGUAGAGGUUAUUUCUGCAUGGAAACUCAACUUCUUGGAUUAGCCGUCCCAGUGAAAAUCCUCAUUGUUGGAG | 0.769
CACCCUGAGAGACCUGGGCAGCCAGGCUUUCCCCAGGCUGCCCGCCCUGAGCCAGGUGCCACCACUGUAAGGAAAUGCCUUCAGAAAUUCACUGGUUCCUUCAAAGCGCU | 0.283
UCCAAGAGGGGACCUGUGGCCAGAUACUUUCCACUUUAGGCUCACAGGGUUGAGUUGCAAAAGCCACAGCUCUUUGUUCUGUGUGCACUUUCUUGGAGAACCCCAUUGUG | 0.354
UGUUUGUUCAAAGGACCAGUUUUCCUAGGCCAAAGAAGUCUCUUCCCCAUGUUAGUCCUAUGCCUUGAAAUAUCAUGCACCAUGACCCACAGCCAUCUGGUUAUGUCUUA | 1.12
UCUUUCCUGAUGGGGAUCUCUGUGUUCUUGAGCUCUGAUUAUGUAAUGAAGGCUGACACAGUCCCCCUGCUGAUCAUUUUGCUUUAUAUAUUAAAAAAUGCUGCAAAAAU | 0.58
UGCCCCGCUGGGUCUGCAGGGAACUGGACUGUCCCAUGGCCUGUGAGCACCGGAGCGCCUGGCUGCCUGCCAAGGAAGUGCAAUUGCAUAAAAACAGAAAGAACAACGCC | 0.414
CAGUCAGCAGUUAAGUAUAUAACAUGGCCCGCAAGGACAAUGAAUCCACUCACAUUGCAGAACAAUUCCGAAAAUGGCAAACUACUACUACUACUGUUCAGUUUUUUAAA | 0.268
CUAUAUUAGAGUGCCAGAAAAGGAGACCUCAGAAGUUAAGCAUAGGUUGCCAAUCUGCUACAAUUAUUUUUCCCACCAAUCUGCUCAAAAUGAUUGUAUAUAGUAUUCUU | 0.463
CAAAAACCACCACUUCCUGGGGAGACGUGGAUACCGUCCUCCUUGCCACCAUGGCCAGUAUGUGCAGAGCAGUACUGCAGUGUGUUCAGGGUUAGCGCCCAUGAAAGGGG | 0.423
GUGCUGAGUUUGACCAUUACAUUCAAAACUAAAACCUGUGUAGGAAGGUUAAGGUCGUGGCAGCAGAUGCCUAGCUUCUUAUUUAAAAAGUUGAGUGCACCCAGCCAUUU | 0.723

Sample 4 — organism: Saccharomyces cerevisiae; observed: binding; technique: yeast competitive growth sequencing; molecule type: peptide; strain: cyclin A1-Cln2 strain; medium: peptide tiling library; notes: pooled screen; reading: direction not given
Sequence | enrichment score
IVLICAKRSLCAAFSV | -1.18
VLVRTSACRSLFGPVD | -2.26
PKRAKRKLYTSEISSP | 0.1
PARRRLRLSVDEVSSP | -0.526
KPKPVKPVTFSTGIKM | 0.982
SSEVARHLLFQSHM | -1.02
TARRIFQEPTEPKTKA | -1.02
PAKRRLELGE | 0.417

Sample 5 — technique: universal PBM; molecule type: double-stranded DNA, one strand shown; medium: in vitro; tested at: not given; reading: higher = stronger binding
Target: Sal-like protein 4, full length isoform B (SALL4, Homo sapiens, UniProt Q9UJQ4-2, residues 1-616)
Notes: 8-mer, flanks averaged, mean of replicates
Oligonucleotide | E-score
AGGTTATC | 0.0901
CGGAATGA | -0.108
AGATTCAA | 0.156
AGCCGTGC | -0.21
CACTCCCA | -0.0479
CACTCCTC | -0.278
AAACTAGC | 0.0779
AGTGTGAC | 0.0321
ATATTCAG | 0.294
AACTAATA | 0.381
CGCACGCG | -0.299
CTTTGTTA | 0.302
ATTTGGGA | 0.0931
CTGATCGA | -0.235
CCAATTCA | 0.169
CGTATTCC | 0.0831
AGCCGTCA | -0.0276
CAAGTGAC | -0.098
TGCAAAAA | 0.237
AATACCCT | -0.0746
GAGTGAAC | -0.161
CTTGAACC | 0.107
AACAAACT | 0.129
AAACAGGT | 0.0814
TCATCGGA | -0.00125

Repeated from above (sample 5):
Oligonucleotide | E-score
AGGTTATC | 0.0901
CGGAATGA | -0.108
ATTTGGGA | 0.0931
CACTCCCA | -0.0479
AGATTCAA | 0.156
CTGATCGA | -0.235
